# Published values of several laboratories.
# HLA class I histocompatibility antigen, A alpha chain allele A*01:01: HLA class I histocompatibility antigen, A alpha chain, allele A*01:01 (Homo sapiens, UniProt P04439)
# B1: gdhA W89F (Thermococcus profundus, UniProt O74024); chain MVEIDPFEMAVKQLERAAQYMDISEEALEWLKKPMRIVEVSVPIEMDDGSVKVFTGFRVQHNWARGPTKGGIRWHPAETLSTVKALATFMTWKVAVVDLPYGGGKGGIIVNPKELSEREQERLARAYIRAVYDVIGPWTDIPAPDVYTNPKIMGWMMDEYETIMRRKGPAFGVITGKPLSIGGSLGRGTATAQGAIFTIREAAKALGIDLKGKKIAVQGYGNAGYYTAKLAKEQLGMTVVAVSDSRGGIYNPDGLDPDEVLKWKREHGSVKDFPGATNITNEELLELEVDVLAPAAIEEVITEKNADNIKAKIVAEVANGPVTPEADDILREKGILQIPDFLCNAGGVTVSYFEWVQNINGYYWTEEEVREKLDKKMTKAFWEVYNTHKDKNIHMRDAAYVVAVSRVYQAMKDRGWVKK
# B2: enzyme M350A/M389A (Pediococcus pentosaceus, UniProt A0AB73HHR8); chain MKNYTDYFFDEQAFDLHDGGYVPLEVSDAPEKPLNVPPLLKPDKETATDVYYTVTAEAGETQLLPGAKTKTWGYNTSLLGQTIVYRRGQHTHVTLKNTLPELTTFHWHGANVSGPYVDGGCHAPVYPGESKHIDFTLEQPATTLWLHAHPCPSTAEQVWHGLAAMVIVKDDHEASLPLPRNYGVDDIPVILQDRRFHENNQWDYRADYDPDGVAGPTAMINGTINPYFDVTTQKVRLRFLDGANRREWRLHFSDDLPFTQIGGDGSLLPEPVKFTHLMLTCAERAEVIVDFGQYHEGDEVTLYTDDVPLLKFRIHAFKPDQTTLPDKLFDVKAPVVDPALPVRHVVMQGADEGVAIDGKKFAMQRIDATQPIGKAQYWDVTNSNDAPGAVHPFHVHGTQFLVLSRNGHAPYPNEHGFKDTIGVNPGETVRLLVRFDLPGVYMYHCHIIEHEDGGMMAQIETFDPAKPKQEYKLMDMDTLMMALAKERGVKPSEIWMGGMQSYEKMGMKM
# B3: RPT3 (Arabidopsis thaliana, UniProt Q9FMF5); chain MMWESESDGGVGVGGGGGREYGDGVLSSNKHGGVKTDGFELRGQSWFVATDIPSDLLVKIGDMNFHLHKYPLLSRSGKMNRLIYESRDPDPTILILDDLPGGPEAFELASKFCYGVPVDLTATNISGLRCAAEYLEMTEDLEEGNLIFKTEAFLSYVVLSSWRDSILVLKSCEKLSPWAENLQIVRRCSESIAWKACSNPKGIRWAYTGKAPSPSTTNFAGSSPRWNESKDSSFYCSPSRNTNSQPVPPDWWFEDVSILRIDHFVRVITAIKVKGMRFELLGAVIMHYAGKWLPGLIKEGGVAIAPAMSSAIGGGLGLGGDEMSISCGSNSSGGSSGPDWKGGLHMVLSAGKTNGHQDSVACLAGLGISPKDQRMIVESLISIIPPQKDSVTCSFLLRLLRAANMLKVAPALITELEKRVGMQFEQATLQDLLIPGYNNKGETMYDVDLVQRLLEHFLVQEQTEGSSPSRMSPSPSQSMYADIPRGNNNNGGGGGGNNQNAKMRVARLVDSYLTEVARDRNLPLTKFQVLAEALPESARTCDDGLYRAIDSYLKAHPTLSEHERKRLCRVMDCQKLSMDACMHAAQNERLPLRVVVQVLFSEQVKISNALANTSLKESTTLGEAMGTYQPMIPNRKTLIEATPQSFQEGWAAAKKDINTLKFELETVKTKYVELQNEMEVMQRQFEKTGKVKNTPSSSAWTSGWKKLSKLTKMSGQESHDISSGGEQAGVDHPPPRKPRRWRNSIS
# B4: enzyme C429A (Methanosarcina mazei, UniProt Q8PVB1); chain MSEQRSVPLREHLLALKPCRHGGLIQETSETYGIPENEILDFSANFNPLGSPFDYPENGLNFEDIIKKSCGKLLEYPDNRYVEFREAAARFVGLGVTPQSIVPGNGSTEIVRLVVESVIEKGDKVLLPWPTFGEYEMQCRITGAEPVCPSQEEVNTLPDEVLEEAKILFICNPNNPTGKLRTREELKVLAERCREHKTLLYVDEAFIELSDPSQSVADLPAENNYVFVMRSLTKDFAIPGIRMGFGIAPPAMADILNTARLSWNLGAIANNTGIALLNIEGGIDSPYLKKAREMILKEGETLKAKIDRIRGFEAGEVNVNFILVDVSKFMLNSSELTARLAARGVLVRDCVSFHGLGKNYIRVAVRTEKENDRLIAAIGDVITEWGREQAKNELQHVIEKASEEGIGGRKTCEYYPCHFEGQNCTFCFAPFYPCENEKTGGKWIQSSRGGRVWSCVDCHLVHKKEIAQKILDCLMHEGDTDELVKVAWKEVMEPIL
# B5: enzyme (Burkholderia cenocepacia, UniProt B4E589); chain MTGYDRQSISDTTAKILLEVQAVHFNAEKPFIFTSGWASPVYIDCRKLISYPRVRRALMEMAETTITRDIGFEQIDAVAGGETAGIPFAAWIADRMMVPMQYVRKKPKGFGRNAQIEGHLEEGSRVLLVEDLTTDSRSKINFVNALRTAGATVNHCFVLFHYNIFKESVSVLKDIDVDLHALATWWDVLRVAKASGYFETKTLDEVEKFLHAPAEWSAAHGGATAPKE
# B6: enzyme (Salvia miltiorrhiza, UniProt A0A0B4VRM0); chain MAPLALLLLSLPVFFLLHNLYYRLRFRLPPGPRPWPIVGNLYDVKPLQFRCFADWAHSYGPIISVWFGSTLNVVVSSTELAKEVLKEKDQQLADRYRSRTATRLTKYGQDLIWADYGPHYVKVRKVCTVALFSAKSLESLRPIREDEVSAMVESIYNDCTAPGNSSKSLLLRKYLGAVSFNNITRIAFGKRYVDTEGRIHKQGEEMRSIADNRLRLGASRAIAEHIPWLRWMFPLNEEEFAKHAARRDRLTREIMEDHNIARQKSGGAKQHFCDALLTLKEKHDLTDDTIIGLLWDMIHAGMDTTAISVEWAMAELIRNPRVLQKVQEELDRVIGNERVMTELDFANLPYLRCVAKESLRLHPPTPLMLPHRASTNVKIGGYDIPKGSTVHVNVWAVARDPEVWKNPLEFRPERFLEDDVDIKGHDFRLLPFGAGRRICPGAQLGLDMVTSMLGRLLHHFKWAPPSGVSPEAINIAERPGVVTFMGTPLEAVATPRLPANLYERVAVDI
# UniProt P06133, sequence (whole entry, looked up): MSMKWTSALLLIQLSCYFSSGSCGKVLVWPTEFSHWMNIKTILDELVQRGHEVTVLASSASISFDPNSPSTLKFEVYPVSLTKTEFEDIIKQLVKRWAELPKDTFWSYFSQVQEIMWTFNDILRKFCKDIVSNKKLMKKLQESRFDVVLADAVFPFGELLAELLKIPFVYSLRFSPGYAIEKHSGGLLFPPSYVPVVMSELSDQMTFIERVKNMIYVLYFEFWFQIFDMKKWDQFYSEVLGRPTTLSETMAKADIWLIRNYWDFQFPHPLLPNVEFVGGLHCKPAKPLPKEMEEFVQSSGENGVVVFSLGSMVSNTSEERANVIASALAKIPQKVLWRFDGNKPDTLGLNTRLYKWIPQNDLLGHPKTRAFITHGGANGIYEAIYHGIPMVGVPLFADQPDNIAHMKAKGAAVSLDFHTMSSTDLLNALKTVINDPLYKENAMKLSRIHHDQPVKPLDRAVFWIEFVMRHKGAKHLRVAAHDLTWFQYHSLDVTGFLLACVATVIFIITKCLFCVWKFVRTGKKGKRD
# UniProt O31986, sequence (whole entry, looked up): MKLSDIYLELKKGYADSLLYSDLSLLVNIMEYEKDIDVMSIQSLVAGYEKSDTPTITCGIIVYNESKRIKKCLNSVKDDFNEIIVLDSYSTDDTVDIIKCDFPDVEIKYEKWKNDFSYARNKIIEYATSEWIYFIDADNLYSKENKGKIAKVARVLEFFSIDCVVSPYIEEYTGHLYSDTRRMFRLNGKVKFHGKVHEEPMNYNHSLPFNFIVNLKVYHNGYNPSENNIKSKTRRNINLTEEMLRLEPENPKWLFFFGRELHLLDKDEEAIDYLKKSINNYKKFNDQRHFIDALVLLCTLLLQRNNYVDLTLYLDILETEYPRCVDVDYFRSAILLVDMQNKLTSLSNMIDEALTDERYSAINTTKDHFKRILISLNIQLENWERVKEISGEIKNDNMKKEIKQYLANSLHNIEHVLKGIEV
Substance,target or system,assay,test system,conditions,how to read,endpoint,value
"enzyme (Aspergillus fumigatus, UniProt B0XYS0)",CC(C)(CO)[C@@H](O)C(=O)NCCC(=O)O,steady-state kinetics,,"pH 7.4, 80 °C, together with: ATP 1000 µM",,Km,170 µM
B1 (gdhA W89F),NC(=O)c1ccc[n+]([C@@H]2O[C@H](COP(=O)(O)OP(=O)(O)OC[C@H]3O[C@@H](n4cnc5c(N)ncnc54)[C@H](OP(=O)(O)O)[C@@H]3O)[C@@H](O)[C@H]2O)c1,steady-state kinetics,,"pH 7.5, 20 °C",,Km,142 µM
"enzyme N248Y/Q325R/R246H/R328K (Arabidopsis thaliana, UniProt O24495)",C[C@@H](O)C(=O)SC[C@H](NC(=O)CC[C@H](N)C(=O)O)C(=O)NCC(=O)O,steady-state kinetics,,"pH 7.2, 25 °C",,Km,249 µM
B2 (enzyme M350A/M389A),CCn1c(=NN=c2sc3cc(S(=O)(=O)O)ccc3n2CC)sc2cc(S(=O)(=O)O)ccc21,steady-state kinetics,,"pH 3.7, 24 °C",,Km,90 µM
"enzyme (Bacillus subtilis, UniProt O31986)",O=c1ccn([C@@H]2O[C@H](CO[P@@](=O)(O)O[P@@](=O)(O)O[C@H]3O[C@H](CO)[C@@H](O)[C@H](O)[C@H]3O)[C@@H](O)[C@H]2O)c(=O)[nH]1,steady-state kinetics,,"pH 7.5, together with: SunA",,Km,4.1 µM
B3 (RPT3),Nc1nc2c(ncn2[C@@H]2O[C@H](COP(=O)(O)OP(=O)(O)OP(=O)(O)O)[C@@H](O)[C@H]2O)c(=O)[nH]1,steady-state kinetics,,"pH 7.5, 30 °C",,Km,14300 µM
LTSTVQLIM,"HLA class I histocompatibility antigen, A alpha chain allele A*01:01",conformational ELISA,peptide,concentration not given,"reference: positive control peptide, direction not given",binding score,80.9%
Peginesatide,UT7/EPO,"phosphorylation, agonist, refers to: phospho-GSK-3β",,10 min,,EC50,0.745 nM
GSGAGHETIV,human MAGI1-2/6 PDZ construct (MBP fusion),automated holdup,"peptide, crude extract","concentration not given, uncorrected, unit not given","reference: biotin control resin, higher = stronger binding",binding intensity,0.252
B4 (enzyme C429A),Nc1ncnc2c1ncn2[C@@H]1O[C@H](COP(=O)(O)OP(=O)(O)OP(=O)(O)O)[C@@H](O)[C@H]1O,steady-state kinetics,,"pH 8.5, 25 °C, apparent, anoxic, together with: L-Thr 10 mM",,Km,118 µM
"UGT2B4 (Homo sapiens, UniProt P06133)",CC(C)=CCc1cc2c(cc1O)O[C@H](c1ccc(O)cc1)CC2=O,steady-state kinetics,,pH 7.4,,Km,10.7 µM
B5 (enzyme),O=C(O)c1cc(=O)[nH]c(=O)[nH]1,steady-state kinetics,,"pH 7, room temperature, together with: PRPP 5 mM",,Km,640 µM
B6 (enzyme),O=C(/C=C/c1ccc(O)cc1)O[C@H](Cc1ccc(O)c(O)c1)C(=O)O,steady-state kinetics,,"pH 7.5, 30 °C, not purified",,Km,678 µM
NLLQWITQV,Jurkat T cells expressing 1G4 TCR,"NFAT-eGFP reporter, flow cytometry",peptide,"concentration not given, HLA-A*02:01 NY-ESO system",,reporter activation,83.1%
QLMPFGSLL,"HLA class I histocompatibility antigen, A alpha chain allele A*01:01",conformational ELISA,peptide,concentration not given,"reference: positive control peptide, direction not given",binding score,0.5%

# Some of these lines once more:
Substance,target or system,assay,test system,conditions,how to read,endpoint,value
B2 (enzyme M350A/M389A),CCn1c(=NN=c2sc3cc(S(=O)(=O)O)ccc3n2CC)sc2cc(S(=O)(=O)O)ccc21,steady-state kinetics,,"pH 3.7, 24 °C",,Km,90 µM
"enzyme (Bacillus subtilis, UniProt O31986)",O=c1ccn([C@@H]2O[C@H](CO[P@@](=O)(O)O[P@@](=O)(O)O[C@H]3O[C@H](CO)[C@@H](O)[C@H](O)[C@H]3O)[C@@H](O)[C@H]2O)c(=O)[nH]1,steady-state kinetics,,"pH 7.5, together with: SunA",,Km,4.1 µM
